Measured values from different studies.
Each line is one published result; not all experiments were run side by side. Several values in a cell are separate wells, animals, samples, runs or records. ± gives the spread as reported.
LRP6 E1 domain: Low-density lipoprotein receptor-related protein 6, E1 domain (LRP6, Homo sapiens, UniProt O75581)
Chain of UniProt O75581 (whole entry, looked up): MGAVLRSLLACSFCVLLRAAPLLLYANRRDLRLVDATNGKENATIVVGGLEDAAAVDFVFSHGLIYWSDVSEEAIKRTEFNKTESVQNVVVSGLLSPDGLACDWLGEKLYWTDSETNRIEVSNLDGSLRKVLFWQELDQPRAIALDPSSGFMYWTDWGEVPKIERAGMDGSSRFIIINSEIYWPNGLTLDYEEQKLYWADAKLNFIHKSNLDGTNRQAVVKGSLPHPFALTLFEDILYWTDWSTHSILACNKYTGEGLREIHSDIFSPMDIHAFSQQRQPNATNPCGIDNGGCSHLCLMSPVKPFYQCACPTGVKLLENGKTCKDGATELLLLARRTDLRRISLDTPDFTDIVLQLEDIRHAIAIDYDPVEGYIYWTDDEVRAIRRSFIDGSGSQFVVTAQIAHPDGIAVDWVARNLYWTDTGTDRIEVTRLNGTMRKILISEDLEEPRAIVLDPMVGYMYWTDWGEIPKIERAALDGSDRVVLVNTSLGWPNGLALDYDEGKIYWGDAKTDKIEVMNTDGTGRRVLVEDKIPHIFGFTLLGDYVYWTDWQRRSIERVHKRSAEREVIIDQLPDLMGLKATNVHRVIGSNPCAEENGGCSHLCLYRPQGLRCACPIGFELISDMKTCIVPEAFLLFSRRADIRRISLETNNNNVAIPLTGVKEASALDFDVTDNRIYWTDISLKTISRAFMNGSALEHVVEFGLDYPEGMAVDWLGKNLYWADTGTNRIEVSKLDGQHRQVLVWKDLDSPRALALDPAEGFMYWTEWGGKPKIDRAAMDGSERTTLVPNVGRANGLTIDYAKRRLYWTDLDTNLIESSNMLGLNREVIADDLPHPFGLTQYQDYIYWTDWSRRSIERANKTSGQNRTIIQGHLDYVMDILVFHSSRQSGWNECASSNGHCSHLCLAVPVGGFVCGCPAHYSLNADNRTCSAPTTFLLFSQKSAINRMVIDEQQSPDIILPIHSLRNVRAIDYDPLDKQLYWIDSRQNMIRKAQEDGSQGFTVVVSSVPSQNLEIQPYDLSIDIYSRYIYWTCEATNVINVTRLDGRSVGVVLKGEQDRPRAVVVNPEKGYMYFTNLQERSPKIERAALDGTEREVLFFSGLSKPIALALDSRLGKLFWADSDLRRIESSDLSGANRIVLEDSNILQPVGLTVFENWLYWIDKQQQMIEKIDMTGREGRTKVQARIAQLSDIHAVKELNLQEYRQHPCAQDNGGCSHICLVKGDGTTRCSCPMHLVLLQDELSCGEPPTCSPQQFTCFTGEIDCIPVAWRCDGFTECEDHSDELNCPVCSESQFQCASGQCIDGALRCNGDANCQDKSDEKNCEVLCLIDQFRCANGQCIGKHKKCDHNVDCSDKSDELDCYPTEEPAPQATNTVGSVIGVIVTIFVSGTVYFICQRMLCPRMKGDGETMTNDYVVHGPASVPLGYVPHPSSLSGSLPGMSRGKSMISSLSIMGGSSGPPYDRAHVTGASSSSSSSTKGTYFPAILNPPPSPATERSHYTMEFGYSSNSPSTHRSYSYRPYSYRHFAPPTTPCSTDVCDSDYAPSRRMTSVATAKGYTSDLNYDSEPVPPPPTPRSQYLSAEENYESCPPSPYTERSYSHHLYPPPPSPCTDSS
F-box only protein 22: F-box only protein 22 (Homo sapiens, UniProt Q8NEZ5)
Chain of UniProt Q8NEZ5 (whole entry, looked up): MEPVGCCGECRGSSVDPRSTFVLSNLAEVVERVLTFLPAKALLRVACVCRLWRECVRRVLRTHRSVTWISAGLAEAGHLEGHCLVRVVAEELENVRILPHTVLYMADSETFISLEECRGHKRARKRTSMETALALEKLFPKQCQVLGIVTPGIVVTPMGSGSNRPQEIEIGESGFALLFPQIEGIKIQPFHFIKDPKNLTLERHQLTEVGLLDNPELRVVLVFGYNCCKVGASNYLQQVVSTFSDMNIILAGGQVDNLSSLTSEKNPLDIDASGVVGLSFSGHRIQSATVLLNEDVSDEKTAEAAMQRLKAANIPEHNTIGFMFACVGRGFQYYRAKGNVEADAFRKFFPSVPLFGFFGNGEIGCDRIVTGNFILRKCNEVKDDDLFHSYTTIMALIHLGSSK
YWHAZ: 14-3-3 protein zeta/delta (YWHAZ, Homo sapiens, UniProt P63104)
Chain of UniProt Q9H4M9 (whole entry, looked up): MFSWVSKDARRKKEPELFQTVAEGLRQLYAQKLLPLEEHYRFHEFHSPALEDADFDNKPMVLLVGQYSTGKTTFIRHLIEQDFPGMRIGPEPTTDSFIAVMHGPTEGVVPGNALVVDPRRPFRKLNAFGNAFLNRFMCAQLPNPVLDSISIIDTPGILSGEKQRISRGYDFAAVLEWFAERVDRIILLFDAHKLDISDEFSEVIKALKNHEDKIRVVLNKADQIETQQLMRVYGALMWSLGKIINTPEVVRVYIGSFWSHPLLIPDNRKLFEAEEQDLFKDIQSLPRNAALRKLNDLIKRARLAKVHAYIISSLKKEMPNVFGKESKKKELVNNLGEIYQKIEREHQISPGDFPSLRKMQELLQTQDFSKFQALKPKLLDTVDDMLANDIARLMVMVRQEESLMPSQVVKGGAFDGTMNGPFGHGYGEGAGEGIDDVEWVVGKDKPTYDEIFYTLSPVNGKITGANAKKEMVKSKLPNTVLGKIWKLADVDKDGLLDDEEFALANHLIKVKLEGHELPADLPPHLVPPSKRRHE
Chain of UniProt P63104 (whole entry, looked up): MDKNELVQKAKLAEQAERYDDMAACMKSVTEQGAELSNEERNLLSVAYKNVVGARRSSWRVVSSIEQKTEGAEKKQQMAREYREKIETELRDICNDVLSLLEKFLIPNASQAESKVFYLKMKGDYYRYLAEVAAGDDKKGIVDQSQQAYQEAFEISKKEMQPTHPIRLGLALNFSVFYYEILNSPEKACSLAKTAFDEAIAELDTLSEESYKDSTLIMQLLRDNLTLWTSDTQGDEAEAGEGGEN
Chain of UniProt P40261 (whole entry, looked up): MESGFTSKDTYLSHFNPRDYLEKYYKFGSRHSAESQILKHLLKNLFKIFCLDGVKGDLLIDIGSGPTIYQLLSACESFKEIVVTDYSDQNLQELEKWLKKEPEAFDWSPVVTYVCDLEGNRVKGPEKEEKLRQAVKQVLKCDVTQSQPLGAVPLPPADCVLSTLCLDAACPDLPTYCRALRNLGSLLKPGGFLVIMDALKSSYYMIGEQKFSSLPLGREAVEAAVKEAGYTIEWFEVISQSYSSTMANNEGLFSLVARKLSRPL
Chain of UniProt O15294 (whole entry, looked up): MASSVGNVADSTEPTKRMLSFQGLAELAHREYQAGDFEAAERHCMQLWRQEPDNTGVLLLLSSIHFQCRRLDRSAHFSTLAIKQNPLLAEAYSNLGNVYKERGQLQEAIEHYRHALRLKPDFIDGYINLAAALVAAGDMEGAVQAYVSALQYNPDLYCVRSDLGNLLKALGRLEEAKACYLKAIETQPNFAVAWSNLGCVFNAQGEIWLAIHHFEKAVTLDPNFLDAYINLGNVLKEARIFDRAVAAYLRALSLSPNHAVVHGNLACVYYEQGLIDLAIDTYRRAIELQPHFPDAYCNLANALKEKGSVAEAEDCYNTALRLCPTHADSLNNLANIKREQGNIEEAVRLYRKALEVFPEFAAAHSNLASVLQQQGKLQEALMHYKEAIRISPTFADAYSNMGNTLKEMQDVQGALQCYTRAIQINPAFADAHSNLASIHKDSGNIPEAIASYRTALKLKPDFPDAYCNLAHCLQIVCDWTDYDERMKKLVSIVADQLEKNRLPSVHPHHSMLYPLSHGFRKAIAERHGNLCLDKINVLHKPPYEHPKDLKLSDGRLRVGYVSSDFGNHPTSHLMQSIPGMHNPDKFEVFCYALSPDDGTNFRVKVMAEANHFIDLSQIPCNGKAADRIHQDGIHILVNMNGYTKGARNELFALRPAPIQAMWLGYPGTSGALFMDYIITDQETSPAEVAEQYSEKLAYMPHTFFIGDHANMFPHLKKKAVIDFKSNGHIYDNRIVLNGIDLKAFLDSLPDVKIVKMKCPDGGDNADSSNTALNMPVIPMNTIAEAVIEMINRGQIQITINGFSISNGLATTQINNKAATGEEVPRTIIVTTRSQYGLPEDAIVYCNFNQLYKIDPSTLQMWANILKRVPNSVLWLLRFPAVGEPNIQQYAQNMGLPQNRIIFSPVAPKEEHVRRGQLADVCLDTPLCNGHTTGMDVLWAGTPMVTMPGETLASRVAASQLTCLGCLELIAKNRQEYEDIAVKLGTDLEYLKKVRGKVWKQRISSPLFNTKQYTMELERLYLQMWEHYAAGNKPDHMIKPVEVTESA
Chain of UniProt P51812 (whole entry, looked up): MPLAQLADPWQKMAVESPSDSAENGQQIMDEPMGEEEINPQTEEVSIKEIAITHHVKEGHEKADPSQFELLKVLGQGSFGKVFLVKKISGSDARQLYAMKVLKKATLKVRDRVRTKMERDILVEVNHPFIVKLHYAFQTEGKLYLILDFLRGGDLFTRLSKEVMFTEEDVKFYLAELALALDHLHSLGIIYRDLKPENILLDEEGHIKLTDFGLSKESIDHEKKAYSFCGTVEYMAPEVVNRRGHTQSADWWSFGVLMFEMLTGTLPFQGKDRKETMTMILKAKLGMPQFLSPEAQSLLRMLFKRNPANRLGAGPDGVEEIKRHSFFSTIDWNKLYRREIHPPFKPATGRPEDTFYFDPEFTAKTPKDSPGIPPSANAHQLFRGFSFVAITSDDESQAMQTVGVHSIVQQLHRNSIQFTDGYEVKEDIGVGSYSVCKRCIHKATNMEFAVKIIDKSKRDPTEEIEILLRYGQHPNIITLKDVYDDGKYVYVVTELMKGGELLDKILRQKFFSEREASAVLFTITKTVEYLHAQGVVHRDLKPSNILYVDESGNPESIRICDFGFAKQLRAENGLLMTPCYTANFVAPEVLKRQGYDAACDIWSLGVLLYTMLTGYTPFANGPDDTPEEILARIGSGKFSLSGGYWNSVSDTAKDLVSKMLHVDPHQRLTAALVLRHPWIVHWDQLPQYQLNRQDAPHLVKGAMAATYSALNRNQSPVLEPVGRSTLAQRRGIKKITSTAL
Chain of UniProt P97287 (152-308, looked up): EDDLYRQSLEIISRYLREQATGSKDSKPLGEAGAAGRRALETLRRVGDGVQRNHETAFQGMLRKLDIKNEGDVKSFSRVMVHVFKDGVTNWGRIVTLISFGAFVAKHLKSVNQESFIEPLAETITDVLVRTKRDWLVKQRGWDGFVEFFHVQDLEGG

Compound	target or system	assay	system	conditions	quantity	value
CC(C)(C)C(=O)OCOP(=O)(OCOC(=O)C(C)(C)C)C1CCCN(O)C1=O (stereo not drawn)	ACHN				CC50	> 100 µM
CC[C@H](C)[C@@H]1NC(=O)[C@H](CO)NC(=O)[C@H](CCC(N)=O)NC(=O)[C@@H](NC(=O)CN)CSSC[C@@H]2NC(=O)CNC(=O)[C@H](C)NC(=O)[C@H](CC(C)C)NC(=O)[C@@H]3CSSC[C@@H](C(=O)NCC(=O)O)NC(=O)[C@H](Cc4ccccc4)NC(=O)CNC(=O)[C@H](CC(N)=O)NC(=O)[C@@H]4CCCN4C(=O)CNC(=O)[C@H](CSSC[C@H](NC(=O)[C@H](CCCNC(=N)N)NC(=O)[C@H](CCC(N)=O)NC(=O)[C@H](CCCNC(=N)N)NC(=O)[C@H](CCCCN)NC(=O)[C@H](C(C)C)NC(=O)[C@H](CCCNC(=N)N)NC(=O)[C@H](CC(N)=O)NC1=O)C(=O)N[C@@H](CCCCN)C(=O)N[C@@H](CCC(N)=O)C(=O)N[C@@H](CC(=O)O)C(=O)N[C@@H](CO)C(=O)N[C@@H](CC(=O)O)C(=O)N3)NC(=O)[C@H](C(C)C)NC2=O	LRP6 E1 domain	binding, SPR		pH 7.5	Kd	0.0272 µM
CC(C)C[C@H](NC(=O)CNC(=O)[C@H](C)NC(=O)[C@H](CC(=O)O)NC(=O)[C@H](CC(=O)O)NC(=O)[C@H](C)NC(=O)[C@@H]1CCCN1C(=O)[C@H](CCCCN)NC(=O)CNC(=O)[C@@H]1CCCN1C(=O)[C@@H]1CCCN1C(=O)[C@@H]1CCCN1C(=O)[C@H](C)NC(=O)CN)C(=O)N[C@H](C(=O)O)C(C)C	F-box only protein 22	binding, SPR			Kd	32 µM
C#CC[C@H](NC(=O)CNC(=O)[C@H](CO)NC(=O)[C@@H]1CCCCNC(=O)CCCC(=O)N[C@@H](CCSC)C(=O)N[C@@H](Cc2c[nH]c3ccccc23)C(=O)N2CCC[C@H]2C(=O)N[C@@H](Cc2c[nH]cn2)C(=O)N[C@@H](CCCNC(=N)N)C(=O)N[C@@H](C(C)C)C(=O)N[C@@H]([C@@H](C)O)C(=O)N[C@@H](C)C(=O)N(C)[C@@H](C)C(=O)N1)C(=O)O	Microtubule-associated protein 1 light chain 3 beta (Homo sapiens, UniProt Q9GZQ8)	fluorescence polarization		together with: fluorescein-labelled peptide	Kd	0.177 ± 0.0238 µM
CC(=O)N[C@@H](CCCNC(=N)N)C(=O)N[C@H](C(=O)N1CCC[C@H]1C(=O)N[C@@H](COP(=O)(O)O)C(=O)N[C@@H](CC(C)C)C(=O)N1CCC[C@H]1C(=O)N[C@H](C(=O)N1CCC[C@H]1C(c1ccccc1)c1ccccc1)C(C)C)[C@@H](C)O	YWHAZ	isothermal titration calorimetry		first duplicate	Kd	2.23 ± 0.74 µM
CC[C@H](C)[C@H](NC(=O)[C@H](CO)NC(=S)Nc1ccc2c(c1)C(=O)OC21c2ccc(O)cc2Oc2cc(O)ccc21)C(=O)N[C@@H](CCC(=O)O)C(=O)N[C@@H](CCCCN)C(=O)NCC(=O)NCC(=O)N[C@@H](CCP(=O)(O)O)C(=O)N[C@@H](CC(C)C)C(=O)N1CCC[C@H]1C(=O)N[C@@H](CCCCN)C(=O)N[C@H](C(=O)N[C@@H](Cc1c[nH]c2ccccc12)C(=O)N[C@@H](CC(C)C)C(=O)N[C@H](C(=O)N1CCC[C@H]1C(=O)N[C@@H](CCCNC(=N)N)C(=O)O)C(C)C)C(C)C	YWHAZ	binding, fluorescence anisotropy		pH 7.5, FITC-labelled phosphopeptide titration	Kd	82.8 µM
CC[C@H](C)[C@H](NC(=O)[C@H](CO)NC(=O)[C@H](CCCNC(=N)N)NC(=O)[C@H](CCCNC(=N)N)NC(=O)[C@H](CCCNC(=N)N)NC(=O)[C@H](CCC(N)=O)NC(=O)[C@H](CCCNC(=N)N)NC(=O)[C@H](CCCNC(=N)N)NC(=O)[C@H](CCCCN)NC(=O)[C@H](CCCCN)NC(=O)[C@H](CCCNC(=N)N)NC(=O)CNC(=O)[C@@H](N)Cc1ccc(O)cc1)C(=O)N[C@@H](C)C(=O)N[C@@H](CC(N)=O)C(=O)N[C@@H](CC(C)C)C(=O)N[C@@H](CC(N)=O)C(=O)N[C@@H](CCCNC(=N)N)C(=O)N[C@@H](CO)C(=O)N[C@H](C(=O)N[C@@H](CO)C(=O)N[C@H](C(=O)N1CCC[C@H]1C(=O)N[C@@H](CCC(=O)O)C(=O)N[C@@H](CC(N)=O)C(=O)O)C(C)C)[C@@H](C)O	OGT (Homo sapiens, UniProt O15294)	microscale thermophoresis	transfected 293T cell lysate	10 min, room temperature	Kd	12.6 ± 4.25 µM
CC(C)C[C@H](NC(=O)[C@H](CCCNC(=N)N)NC(=O)[C@H](CC(C)C)NC(=O)[C@H](CO)NC(=S)Nc1ccc2c(c1)C(=O)OC21c2ccc(O)cc2Oc2cc(O)ccc21)C(=O)N[C@@H](CCCCN)C(=O)N[C@@H](CS)C(=O)NCC(=O)N[C@@H](CCP(=O)(O)O)C(=O)NCC(=O)N1CCC[C@H]1C(=O)N[C@H](C(=O)N[C@@H](Cc1c[nH]c2ccccc12)C(=O)N[C@@H](CC(C)C)C(=O)N[C@H](C(=O)N1CCC[C@H]1C(=O)N[C@@H](CCCNC(=N)N)C(=O)O)C(C)C)C(C)C	SFN (Homo sapiens, UniProt P31947)	binding, fluorescence anisotropy		pH 7.5, FITC-labelled phosphopeptide titration	Kd	88.5 µM
CC(CO)C1CN2C(=O)[C@H](CC(=O)O)NC(=O)CC(CC3CC3)NC(=O)[C@H](CCC(=O)O)NC(=O)CNC(=O)[C@H]([C@@H](C)O)NC(=O)[C@H](CCC(=O)O)NC(=O)[C@@H]2C1(F)F (stereo partly drawn)	KEAP1 (Homo sapiens, UniProt Q14145)	binding, MST			Kd	~0.007 µM
O=C(N[C@@H]1c2ccccc2C[C@H]1N1CCCC1)c1ccc(-c2ccnc3[nH]ccc23)nc1	Ribosomal protein S6 kinase alpha-3, N-terminal kinase domain (RPS6KA3, Homo sapiens, UniProt P51812)	binding, competition with immobilised ligand			Kd	1.65 µM
O=C1NC2(CC2)COc2ncc(F)cc2[C@H]2COCCN2c2ccn3ncc1c3n2			Sprague-Dawley rat, female, heart	oral, 2.5 mg/kg/day, 4 weeks	organ weight	1.29 ± 0.212 g
CC[C@H](C)[C@H](NC(=O)[C@@H]1CCCN1C(=O)[C@H](CO)NC(=O)[C@H](CS)NC(=O)CNC(=O)[C@H](CO)NC(=O)[C@H](Cc1ccccc1)NC(=O)[C@H](Cc1ccccc1)NC(=O)[C@H](CO)NC(=O)[C@@H](N)[C@@H](C)O)C(=O)N[C@@H](CCC(=O)O)C(=O)N[C@@H](CCC(=O)O)C(=O)N[C@@H](CC(=O)O)C(=O)N[C@@H](C)C(=O)N[C@@H](Cc1c[nH]cn1)C(=O)O	Serine/threonine-protein phosphatase 2A 56 kDa regulatory subunit alpha isoform (Homo sapiens, UniProt Q15172)	binding, bead-based Langmuir fit		pH 7.5	Kd	148 µM
CC(=O)N[C@@H](Cc1ccc(O)cc1)C(=O)N[C@@H](CC(N)=O)C(=O)N1CCC[C@H]1C(=O)N[C@@H](Cc1ccccc1)C(=O)N[C@@H](CCC(=O)O)C(=O)N[C@@H](CCC(=O)O)C(=O)NCC(=O)NCC(N)=O	EH domain-containing protein 1, EH domain (Homo sapiens, UniProt Q9H4M9)	peptide binding, ITC		20 °C, 15 mM NaCl	Kd	11.1 µM and 9.17 µM and 8.54 µM and 8.62 µM
CC(=O)N[C@@H](CCCNC(=N)N)C(=O)N[C@H](C(=O)N1CCC[C@H]1C(=O)N[C@@H](COP(=O)(O)O)C(=O)N[C@@H](CC(C)C)C(=O)N1CCC[C@H]1C(=O)N[C@H](C(=O)N1CCC[C@H]1C(c1ccccc1)c1ccccc1)[C@@H](C)O)[C@@H](C)O	YWHAZ	isothermal titration calorimetry		first duplicate	Kd	5.35 ± 0.38 µM
NC(=O)c1ccc(N)nc1	Nicotinamide N-methyltransferase, SAM-bound (NNMT, Homo sapiens, UniProt P40261)	substrate, SPR		20 °C, together with: SAM	Kd	3.98 µM
CC(C)C[C@H](NC(=O)[C@@H]1CCCN1C(=O)CCOCCOCCOCCOCCOCCOCCOCCOCCNC(=S)Nc1ccc2c(c1)C(=O)OC21c2ccc(O)cc2Oc2cc(O)ccc21)C(=O)N[C@@H](Cc1cncn1CCCCCCCCc1ccccc1)C(=O)N[C@@H](C)C(=O)N[C@H](C(N)=O)[C@@H](C)CP(=O)(O)O	Serine/threonine-protein kinase PLK1, polo-box domain (PLK1, Homo sapiens, UniProt P53350)				Kd	0.0245 ± 0.0013 µM
CC(C)C[C@H](NC(=O)[C@H](C)NC(=O)[C@H](C)NC(=O)[C@H](CC(=O)O)NC(=O)[C@H](CC(=O)O)NC(=O)[C@H](C)NC(=O)[C@@H]1CCCN1C(=O)[C@H](CCCCN)NC(=O)CNC(=O)[C@@H]1CCCN1C(=O)[C@@H]1CCCN1C(=O)[C@@H]1CCCN1C(=O)[C@H](CCC(=O)O)NC(=O)CN)C(=O)N[C@H](C(=O)O)C(C)C	F-box only protein 22	binding, SPR			Kd	20.5 µM
COCC[C@H](NC(=O)[C@H](CCC(=O)O)NC(=O)[C@H](CCCNC(=N)N)NC(=O)[C@H](C)NC(=O)[C@H](Cc1c[nH]c2ccccc12)NC(=O)[C@H](CCC(=O)O)NC(=O)[C@H](CCC(=O)O)NC(=O)[C@H](CCC(=O)O)NC(C)=O)C(=O)NCC(=O)N[C@@H](C)C(=O)N[C@@H](CCC(N)=O)C(=O)N[C@@H](CC(C)C)C(=O)N[C@@H](CCCNC(=N)N)C(=O)N[C@@H](CCCNC(=N)N)C(=O)N[C@@H](C)C(=O)N[C@@H](C)C(=O)N[C@@H](CC(=O)O)C(=O)N[C@@H](CC(=O)O)C(=O)N[C@@H](CC(C)C)C(=O)N[C@@H](CC(N)=O)C(=O)N[C@@H](C)C(=O)N[C@@H](CCC(N)=O)C(=O)N[C@@H](Cc1ccc(O)cc1)C(=O)N[C@@H](CCC(=O)O)C(=O)N[C@@H](CCCNC(=N)N)C(=O)N[C@@H](CCCNC(=N)N)C(=O)N[C@@H](CCCNC(=N)N)C(N)=O	Induced myeloid leukemia cell differentiation protein Mcl-1 homolog, residues 152-308 (Mus musculus, UniProt P97287)	binding, SPR		0.2% DMSO	Kd	0.037 µM
CC(C)C[C@H](NC(=O)[C@H](Cc1c[nH]c2ccccc12)NC(=O)CNC(=O)[C@H](Cc1ccccc1)NC(=O)[C@H](CO)NC(=O)[C@H](Cc1c[nH]c2ccccc12)NC(=O)CNC(=O)[C@@H]1CCCN1C(=O)[C@@H](N)C(C)C)C(=O)N[C@@H](Cc1c[nH]cn1)C(=O)N[C@@H](Cc1c[nH]c2ccccc12)C(=O)N1CCC[C@H]1C(=O)O	V-type immunoglobulin domain-containing suppressor of T-cell activation, IgV domain (VSIR, Homo sapiens, UniProt Q9H7M9)	binding, microscale thermophoresis			Kd	0.071 µM
CC[C@H](C)[C@@H]1NC(=O)[C@H](Cc2c[nH]cn2)NC(=O)[C@H](CC(N)=O)NC(=O)[C@H](CO)NC(=O)[C@H](CCC(N)=O)NC(=O)[C@@H](NC(=O)CN)CSSC[C@@H]2NC(=O)CNC(=O)[C@H](C)NC(=O)[C@H](CC(C)C)NC(=O)[C@@H]3CSSC[C@@H](C(=O)NCC(=O)O)NC(=O)[C@H](C)NC(=O)CNC(=O)[C@H](CC(N)=O)NC(=O)[C@@H]4CCCN4C(=O)CNC(=O)[C@H](CSSC[C@H](NC(=O)[C@H](CCCNC(=N)N)NC(=O)[C@H](CC(N)=O)NC(=O)[C@H](Cc4c[nH]cn4)NC(=O)[C@H](CCCCN)NC(=O)[C@H](CC(C)C)NC1=O)C(=O)N[C@@H](CCCCN)C(=O)N[C@@H](CCC(N)=O)C(=O)N[C@@H](CC(=O)O)C(=O)N[C@@H](CO)C(=O)N[C@@H](CC(=O)O)C(=O)N3)NC(=O)[C@H](C(C)C)NC2=O	LRP6 E1 domain	binding, SPR		pH 7.5	Kd	> 1 µM
CC(C)C[C@H](NC(=O)[C@H](CS)NC(=O)[C@H](CC(=O)O)NC(=O)[C@H](C)NC(=O)[C@H](CO)NC(=O)[C@H](Cc1c[nH]cn1)NC(=O)[C@H](CC(=O)O)NC(=O)[C@H](CO)NC(=O)[C@@H](NC(=O)CNC(=O)[C@H](CC(=O)O)NC(=O)[C@H](CC(=O)O)NC(=O)[C@H](CC(C)C)NC(=O)[C@@H](N)CC(=O)O)C(C)C)C(=O)N[C@@H](CC(=O)O)C(=O)N[C@@H](CCC(N)=O)C(=O)N[C@@H](CC(=O)O)C(=O)N[C@@H](CO)C(=O)O	Beta-arrestin-2 (Arrb2, Rattus norvegicus, UniProt P29067)	isothermal titration calorimetry		pH 8.0, 298 K	Kd	0.98 ± 0.06 µM

A few entries again:
Compound	target or system	assay	system	conditions	quantity	value
CC(=O)N[C@@H](CCCNC(=N)N)C(=O)N[C@H](C(=O)N1CCC[C@H]1C(=O)N[C@@H](COP(=O)(O)O)C(=O)N[C@@H](CC(C)C)C(=O)N1CCC[C@H]1C(=O)N[C@H](C(=O)N1CCC[C@H]1C(c1ccccc1)c1ccccc1)[C@@H](C)O)[C@@H](C)O	YWHAZ	isothermal titration calorimetry		first duplicate	Kd	5.35 ± 0.38 µM
O=C1NC2(CC2)COc2ncc(F)cc2[C@H]2COCCN2c2ccn3ncc1c3n2			Sprague-Dawley rat, female, heart	oral, 2.5 mg/kg/day, 4 weeks	organ weight	1.29 ± 0.212 g
